Earlier results, collected from citations in different studies.
Each line is one published result; not all experiments were run side by side. ≈ marks a conversion by molar mass, not a printed value.
Sequence of UniProt Q8WTQ7 (whole entry, looked up): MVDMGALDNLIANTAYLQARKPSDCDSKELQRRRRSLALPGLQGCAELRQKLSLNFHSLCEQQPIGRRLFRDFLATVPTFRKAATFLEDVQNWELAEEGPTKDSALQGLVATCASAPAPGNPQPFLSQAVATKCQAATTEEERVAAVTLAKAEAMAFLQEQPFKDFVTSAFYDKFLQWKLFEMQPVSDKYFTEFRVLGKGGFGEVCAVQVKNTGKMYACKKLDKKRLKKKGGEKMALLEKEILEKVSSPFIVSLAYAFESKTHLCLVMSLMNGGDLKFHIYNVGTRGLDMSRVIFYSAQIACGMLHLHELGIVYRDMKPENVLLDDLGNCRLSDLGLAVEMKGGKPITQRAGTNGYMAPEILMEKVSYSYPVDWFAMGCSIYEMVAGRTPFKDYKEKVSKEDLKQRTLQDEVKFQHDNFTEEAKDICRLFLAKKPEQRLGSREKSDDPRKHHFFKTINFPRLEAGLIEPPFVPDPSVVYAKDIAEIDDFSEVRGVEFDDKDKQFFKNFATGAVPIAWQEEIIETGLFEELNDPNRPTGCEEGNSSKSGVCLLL

| Structure (SMILES) | target or system | assay | system | conditions | scale | endpoint | result |
| --- | --- | --- | --- | --- | --- | --- | --- |
| CO[C@H]1C[C@@H]2CC[C@@H](C)[C@@](O)(O2)C(=O)C(=O)N2CCCC[C@H]2C(=O)O[C@H]([C@H](C)C[C@@H]2CC[C@@H](OCCO)[C@H](OC)C2)CC(=O)[C@H](C)/C=C(\C)[C@@H](O)[C@@H](OC)C(=O)[C@H](C)C[C@H](C)/C=C/C=C/C=C/1C |  |  | plasma | population PK two-compartment |  | absorption rate constant (ka) | 6.07 h⁻¹ |
| CC1(C)CCC(CN2CCN(c3ccc(C(=O)NS(=O)(=O)c4ccc(NCC5CCOCC5)c([N+](=O)[O-])c4)c(Oc4cnc5[nH]ccc5c4)c3)CC2)=C(c2ccc(Cl)cc2)C1 |  | population pharmacokinetics |  |  |  | absorption rate constant | 0.155 h⁻¹ |
| c1cnc2cc3c(cc2n1)[C@@H]1CNC[C@H]3C1 |  | PK model |  | oral |  | absorption rate constant | 1.03 h⁻¹ |
| CC(C)(O/N=C(\C(=O)N[C@@H]1C(=O)N2C(C(=O)[O-])=C(C[n+]3ccccc3)CS[C@H]12)c1csc(N)n1)C(=O)O | Enterobacter cloacae |  | clinical isolate RKI-No_546/13 |  |  | MIC | ≤ 2 µg/mL |
| C[C@@H]1CCO[C@H]2Cn3cc(C(=O)NCc4ccc(F)cc4F)c(=O)c(O)c3C(=O)N12 |  | population PK | treatment-naive adult patients |  |  | absorption rate constant | 2.24 h⁻¹ |
| Cc1nn(C)cc1S(=O)(=O)NC(=O)c1ccc(-n2ccc(OCC(C)(C)C(F)(F)F)n2)nc1N1C[C@@H](C)CC1(C)C |  |  |  |  |  | absorption lag time | 2.17 h |
| CCCCCCCCCCCCCCCC(=O)N[C@@H](CCC(=O)NCCCC[C@H](NC(=O)[C@H](C)NC(=O)[C@H](C)NC(=O)[C@H](CCC(N)=O)NC(=O)CNC(=O)[C@H](CCC(=O)O)NC(=O)[C@H](CC(C)C)NC(=O)[C@H](Cc1ccc(O)cc1)NC(=O)[C@H](CO)NC(=O)[C@H](CO)NC(=O)[C@@H](NC(=O)[C@H](CC(=O)O)NC(=O)[C@H](CO)NC(=O)[C@@H](NC(=O)[C@H](Cc1ccccc1)NC(=O)[C@@H](NC(=O)CNC(=O)[C@H](CCC(=O)O)NC(=O)[C@H](C)NC(=O)[C@@H](N)Cc1cnc[nH]1)[C@@H](C)O)[C@@H](C)O)C(C)C)C(=O)N[C@@H](CCC(=O)O)C(=O)N[C@@H](Cc1ccccc1)C(=O)N[C@H](C(=O)N[C@@H](C)C(=O)N[C@@H](Cc1c[nH]c2ccccc12)C(=O)N[C@@H](CC(C)C)C(=O)N[C@H](C(=O)N[C@@H](CCCNC(=N)N)C(=O)NCC(=O)N[C@@H](CCCNC(=N)N)C(=O)NCC(=O)O)C(C)C)[C@@H](C)CC)C(=O)O |  | one-compartment population PK model |  | fixed, previously estimated |  | absorption rate constant | 0.0704 h⁻¹ |
| CCC(C)n1ncn(-c2ccc(N3CCN(c4ccc(OCC5COC(Cn6cncn6)(c6ccc(Cl)cc6Cl)O5)cc4)CC3)cc2)c1=O (stereo not shown) |  |  |  | first-order absorption model |  | absorption rate constant | 1.1 h⁻¹ |
| Nc1cc(C(F)(F)F)c(-c2nc(N3CCOCC3)nc(N3CCOCC3)n2)cn1 | GRK7 (Homo sapiens, UniProt Q8WTQ7) | enzyme activity |  | 10 µM | reference: untreated | remaining activity | 100% |
| C[C@H](Cn1cnc2c(N)ncnc21)OCP(=O)(O)O |  |  |  | Simcyp input parameter |  | absorption rate constant | 1.03 h⁻¹ |
| Cc1cc(Nc2ncc(Cl)c(Nc3ccccc3S(=O)(=O)C(C)C)n2)c(OC(C)C)cc1C1CCNCC1 |  |  |  |  |  | absorption rate constant ka | 0.4 h⁻¹ |
| CNC(C)C1CCC(N)C(OC2C(N)CC(N)C(OC3OCC(C)(O)C(NC)C3O)C2O)O1 (stereo not shown) | Acinetobacter baumannii |  | clinical isolate RKI-No_377/15 |  |  | MIC | 2 µg/mL (≈ 4.19 µM) |
| OC[C@H]1O[C@@H](Oc2cc3c(O)cc(O)cc3[o+]c2-c2cc(O)c(O)c(O)c2)[C@H](O)[C@@H](O)[C@@H]1O |  |  | solution | together with: Fe3+ |  | absorption maximum | 664 nm |

Some of these lines once more:
| Structure (SMILES) | target or system | assay | system | conditions | scale | endpoint | result |
| --- | --- | --- | --- | --- | --- | --- | --- |
| CO[C@H]1C[C@@H]2CC[C@@H](C)[C@@](O)(O2)C(=O)C(=O)N2CCCC[C@H]2C(=O)O[C@H]([C@H](C)C[C@@H]2CC[C@@H](OCCO)[C@H](OC)C2)CC(=O)[C@H](C)/C=C(\C)[C@@H](O)[C@@H](OC)C(=O)[C@H](C)C[C@H](C)/C=C/C=C/C=C/1C |  |  | plasma | population PK two-compartment |  | absorption rate constant (ka) | 6.07 h⁻¹ |
| CC1(C)CCC(CN2CCN(c3ccc(C(=O)NS(=O)(=O)c4ccc(NCC5CCOCC5)c([N+](=O)[O-])c4)c(Oc4cnc5[nH]ccc5c4)c3)CC2)=C(c2ccc(Cl)cc2)C1 |  | population pharmacokinetics |  |  |  | absorption rate constant | 0.155 h⁻¹ |
